# Measurements collected from several papers.
# Every numbered part comes from another study and shows a few of its results, in no order.

# Series 1
# Target: Histone acetyltransferase KAT6A, winged helix 2, GST fusion (KAT6A, Homo sapiens, UniProt Q92794, residues 85-181)
# Method: protein binding microarray
# Molecule type: double-stranded DNA, one strand shown
# Matrix: in vitro
# Tested at: not given
# Notes: 8-mer, flanks averaged, mean of 2 arrays, mostly near background
# Relative to: not given
# Direction: higher = stronger binding
# Construct (chain): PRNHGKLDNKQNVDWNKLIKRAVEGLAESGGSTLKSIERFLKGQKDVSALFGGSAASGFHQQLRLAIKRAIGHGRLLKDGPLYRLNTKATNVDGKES
Oligonucleotide,E-score
CTGTCTTA,0.0307
CATAAAGC,-0.00288
CGTCATCC,-0.00977
AGTGCTAA,-0.00268
ACTAGGCA,-0.0888
CACTCTAA,-0.146
CCCTGGCG,0.174
CTCGGACA,0.114
ATAACCTC,-0.185
AATGGGTA,0.0395
ATCTGGTG,0.0777

# Series 2
# Target: Interferon regulatory factor 3, full length, phosphomimetic (IRF3, Homo sapiens, UniProt Q14653, residues 1-427, S386D/S396D/S398D/S402D/T404D/S405D)
# Chain of UniProt Q14653 (whole entry, unmodified, looked up): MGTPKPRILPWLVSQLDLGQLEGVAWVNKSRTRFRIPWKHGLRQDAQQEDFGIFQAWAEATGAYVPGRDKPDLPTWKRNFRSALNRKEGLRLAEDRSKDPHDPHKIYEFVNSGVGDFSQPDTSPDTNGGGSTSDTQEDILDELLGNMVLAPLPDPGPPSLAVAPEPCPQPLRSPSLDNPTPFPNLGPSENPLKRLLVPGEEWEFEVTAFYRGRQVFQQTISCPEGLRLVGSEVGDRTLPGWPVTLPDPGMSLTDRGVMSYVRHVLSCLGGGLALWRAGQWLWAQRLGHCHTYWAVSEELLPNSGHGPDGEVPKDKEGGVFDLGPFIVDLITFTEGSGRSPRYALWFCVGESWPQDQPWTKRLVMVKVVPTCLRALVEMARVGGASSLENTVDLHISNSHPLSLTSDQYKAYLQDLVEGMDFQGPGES
# Method: protein-binding microarray
# Molecule type: double-stranded DNA, one strand shown
# Matrix: in vitro
# Tested at: 2540 nM top
# Notes: 60-bp whole probe
# Together with: salmon DNA 0.4 mg/ml
# Relative to: random background probes
# Direction: higher = stronger binding
# All sequences stand within: GCCTAGCAC … GTCTTGATTCGCTTGACGCTGCTG
Oligonucleotide,fitted relative affinity [z-score]
GACGGACTGCTTTTCCTGGCGTGCTAG,-0.186
ATGTTCACTGTGTACCGTCTGTGCTAG,0.295
GATGATCTCAGACTGGAGACGTGCTAG,-0.241
TCATATACCCATGTAGAACTGTGCTAG,0.572
GATGATTTCAGACTGGAGACGTGCTAG,0.348
GACGGACTGGACTATCGGGACGTGCTA,-0.421
CTAGGTTTCCTACTGCTTTAGTGCTAG,4.77
TTAGGACTGGACAATGGGTTAGTGCTA,-0.658

# Series 3
# Molecule: PhoQ, residues 284 288 289 292 302 303 QWQEDG
# Method: Sort-seq
# Refers to: YFP reporter
# Matrix: E. coli
# Notes: PhoQ-PhoP variant library
# Together with: 10 µM Mg2+
# Relative to: high Mg2+ state
# Direction: higher = stronger signaling
target,fold induction
"PhoP, residues 12 14 15 18 19 VHTVL (Escherichia coli, UniProt P23836)",13
"PhoP, residues 12 14 15 18 19 ICWRQ (Escherichia coli, UniProt P23836)",2.87
"PhoP, residues 12 14 15 18 19 TQCLL (Escherichia coli, UniProt P23836)",3.92

# Series 4
# Target: Sal-like protein 4, full length isoform A (SALL4, Homo sapiens, UniProt Q9UJQ4, residues 1-1053)
# Chain of UniProt Q9UJQ4 (whole entry, looked up): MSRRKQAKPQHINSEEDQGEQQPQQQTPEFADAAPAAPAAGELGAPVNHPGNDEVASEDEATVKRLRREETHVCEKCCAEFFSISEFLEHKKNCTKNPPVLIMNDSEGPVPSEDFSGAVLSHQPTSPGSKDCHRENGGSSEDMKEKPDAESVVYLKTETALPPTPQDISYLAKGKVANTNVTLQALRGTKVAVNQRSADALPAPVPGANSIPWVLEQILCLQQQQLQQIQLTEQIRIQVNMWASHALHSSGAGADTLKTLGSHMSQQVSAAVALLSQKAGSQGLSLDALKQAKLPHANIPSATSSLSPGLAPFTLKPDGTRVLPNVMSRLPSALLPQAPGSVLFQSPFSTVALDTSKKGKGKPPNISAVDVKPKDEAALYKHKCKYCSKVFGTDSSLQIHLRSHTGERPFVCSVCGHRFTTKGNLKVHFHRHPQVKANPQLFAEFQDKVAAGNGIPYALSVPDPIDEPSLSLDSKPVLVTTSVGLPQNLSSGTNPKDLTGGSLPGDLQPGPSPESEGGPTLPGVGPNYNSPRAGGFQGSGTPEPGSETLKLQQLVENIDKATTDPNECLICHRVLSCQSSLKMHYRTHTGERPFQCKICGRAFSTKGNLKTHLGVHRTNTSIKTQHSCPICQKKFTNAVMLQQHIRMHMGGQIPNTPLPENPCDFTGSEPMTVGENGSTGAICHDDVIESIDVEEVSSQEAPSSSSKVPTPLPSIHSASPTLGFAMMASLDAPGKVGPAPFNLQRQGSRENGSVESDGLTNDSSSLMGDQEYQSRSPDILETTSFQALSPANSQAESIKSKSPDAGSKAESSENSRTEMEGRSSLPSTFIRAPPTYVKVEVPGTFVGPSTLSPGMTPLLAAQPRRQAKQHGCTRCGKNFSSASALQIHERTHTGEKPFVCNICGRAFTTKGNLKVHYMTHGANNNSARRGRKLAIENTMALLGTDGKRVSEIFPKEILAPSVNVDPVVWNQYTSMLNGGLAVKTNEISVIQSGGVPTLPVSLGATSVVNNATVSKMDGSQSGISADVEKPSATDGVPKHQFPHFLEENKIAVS
# Method: universal PBM
# Molecule type: double-stranded DNA, one strand shown
# Matrix: in vitro
# Tested at: 600 nM
# Notes: 8-mer, flanks averaged, mean of replicates
# Direction: higher = stronger binding
Oligonucleotide,E-score
AATCCAGA,0.265
ACCAATTG,0.0478
AACTTGCG,-0.149
ACGTCTTC,-0.0111
GGGAGCCA,-0.308
CCTTGATA,0.144
GGAAGGTA,0.0554
AAAATTAG,0.266
CCTAACAC,-0.0214
CTGGAATC,-0.0716
AAAGTGAT,0.187
GAGGGAGC,-0.249
ATCCCGAC,-0.117
ACGTTGAA,0.0418

# A few entries again (series 2):
Oligonucleotide,fitted relative affinity [z-score]
GATGATTTCAGACTGGAGACGTGCTAG,0.348
TTAGGACTGGACAATGGGTTAGTGCTA,-0.658
TCATATACCCATGTAGAACTGTGCTAG,0.572
